Measurements from different studies.
A part holds a random share of what one study measured. Positions count from the first letter of the parent shown.

Study 1 — method: RNA Bind-n-Seq; form: RNA; sample: in vitro; tested at: 365 nM; reference: no-protein control; reading: higher = stronger binding
Target: RNA binding protein fox-1 homolog 2, RRM domain, GST-SBP tag (RBFOX2, Homo sapiens, UniProt O43251-10, residues 100-194)
Notes: natural RNA segment, single round, ends assumed
Shared flanks, not repeated: GGGAGUUCUACAGUCCGACGAUC … UGGAAUUCUCGGGUGCCAA
Construct (chain): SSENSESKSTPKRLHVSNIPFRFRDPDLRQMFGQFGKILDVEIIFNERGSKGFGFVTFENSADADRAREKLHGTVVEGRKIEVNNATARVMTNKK
Strand | RBNS enrichment (R)
CGAAGAGGAAAGCCACGUAGAGUGGUUGGCAUGGGGUGCCAGCAUCGUGCAAGCUCUGUCAUAAUCUGCAUCUUCCCAGCAGCCUGGUACCCCAGGUUCCUGUAACUCCC | 0.582
GAGCAGUCUGCCUCUCCCAAGCCCCAGGGGACAGUGGGGAGGCAGGGGAGGGGGUGGCUGUGGUCCAGGGACCCCAGGCCCUGAUUCCUGUGCCUGGCGUCUGUCCCGGC | 0.407
AGGAAAAAACCAACAACUCUAUUCAUUCCCAAACAAAAUCUCUUCCCCCUUAGUCAAUAGCUUGCGAAAGACAUCUUAACUCACCCUUGCAGAUAAGUCUUGGAGUGAAA | 0.97
GAACCACAGACCACCAAUGUUGAAGUCAGAAUGGAAAGUGUGCCAGCAAGGAUUUCUGAACACUAAAUCCAACGAGCCUUCACAGGGAAAGGAUAUUUGAGCAGAAUUCU | 0.425
UGAGUAAAUGUAUCCAAGAGACACAUCUAGUAGGGAGUUCAGUUUUAAGAUAGUUUGGCUCCAGAGUUGGUGUUUUUAACCACUGUGUUUUCUCACUUUUGUUCAGUGUU | 0.932
UUCCAGAGCUCUUUGAUCGCUUUUAAUAAACUGCAAGUUCAUUUUAAAUGAAGGGCCAGCAUAUAUACUUGCAAGAUAAUUUUCAGCUGCAAGGAUUCAGCACCAGUUAU | 0.92
UGGCCCUGGCAGCCCCGCCAUCCCCAUCCCCUGCCACGUGCUGCUCCCUCCAUCUGGUCCCUGCCCCUCAGCCAGCGGAGGAGCCCGCUGGGCCCUUCCCUGCCCGUCCC | 0.335
ACAUAUCUGCAGUCCCAGCACAGUGGGACAAAAAGAAUUUAGACCCCAAAAGUGUCCUCGGCAUGGAUCUUGAACAGAACCAGUAUCUGUCAUGGAACUGAACAUUCAUC | 0.607
CUCUUCCCCACCUCUCUCAUCUAGACCAAAAAGAAGACUACAAUUUAGAUCCUUGGAGACUUUUCCUGUAUGCCUUCCAAAACUUCCUGCUCACUUAGAUGUACCUUGUG | 0.595
UCCAGGGCUUUUUCUACUUCAUCACAAGGAAUGUUUUGAAAGUGUCUGCUUUUUUUAUCCUUAAAAUUCACCUGUCAGGGAGGCAUUAAAAAUUUGGAAAUGUAUGCCAG | 0.78
AGACCCUGUUUACUCCAUGCCUGUUCAAAAGUCAUUUUGACUUCUAGCUUUGUUUCACUUUCUUCUUUCAAUACUUCUGUUUCCUCGUCCUUUUCCUUCAUAUUCCAUGG | 5.12
GUGGAGAAAGGCAAGAUUGAAGACACUGGAGGCAGUGGCGGCUCCUAUUCCAUCAAAACCCAGUUUAACUCGGAGGAGCAGUGGACAAAAGCGCUCAAGUUCAUGCUGAC | 0.515

Study 2 — target: CCNB2, cyclin fold, Cln2 fusion (human); method: yeast growth competition, sequencing; sample: yeast; notes: weak parent motif; reference: not given; reading: higher = stronger binding
Parent: RBL2 docking peptide (human); STTRRRLFVENDS
Substitution | normalised enrichment score
STTRRRLFVECDS [N11C] | 1.02
STTRRRLFVGNDS [E10G] | 0.14
STTRRALFVENDS [R6A] | 0.422
YTTRRRLFVENDS [S1Y] | 0.472
STTRRRLYVENDS [F8Y] | 0.0965
STTRRLLFVENDS [R6L] | 0.643
STTRPRLFVENDS [R5P] | -0.0504
STTRRRLFVSNDS [E10S] | 0.326
STTRRRLMVENDS [F8M] | -0.0936
STTRARLFVENDS [R5A] | -0.156
STTVRRLFVENDS [R4V] | 0.412
STTRRRLFVENDM [S13M] | 0.345
STTRRRLFVENLS [D12L] | -0.217
STTRRRLFVENDC [S13C] | 0.344
STTRRRLFVDNDS [E10D] | 0.848

Study 3 — method: RNA Bind-n-Seq; form: RNA; sample: in vitro; tested at: 200 nM; notes: whole 134-nt RNA, ends assumed; added: 150 mM LiCl; reference: input library; reading: higher = stronger binding; library: 7-deaza-guanosine replaces G
Target: Ras GTPase-activating protein-binding protein 1, full length (G3BP1, Homo sapiens, UniProt Q13283)
UniProt Q13283, sequence (whole entry, looked up): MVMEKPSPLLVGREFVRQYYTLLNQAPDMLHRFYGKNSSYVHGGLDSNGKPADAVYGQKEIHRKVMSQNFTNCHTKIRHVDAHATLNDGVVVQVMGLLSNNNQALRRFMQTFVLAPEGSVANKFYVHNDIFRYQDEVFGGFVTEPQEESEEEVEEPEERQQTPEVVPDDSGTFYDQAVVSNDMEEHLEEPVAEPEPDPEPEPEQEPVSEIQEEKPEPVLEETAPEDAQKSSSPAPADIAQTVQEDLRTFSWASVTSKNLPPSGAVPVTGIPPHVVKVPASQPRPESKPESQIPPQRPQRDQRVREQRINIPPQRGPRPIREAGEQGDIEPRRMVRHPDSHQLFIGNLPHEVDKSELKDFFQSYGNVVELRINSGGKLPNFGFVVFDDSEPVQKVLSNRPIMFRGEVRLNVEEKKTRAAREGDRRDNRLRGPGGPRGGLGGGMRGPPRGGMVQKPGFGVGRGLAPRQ
Shared flanks, not repeated: GGGAGUUCUACAGUCCGACGAUC … UGGAAUUCUCGGGUGUCAAGG
Strand | log2 enrichment
UAACUUUAGAGGAGGAUCUGAUGGAUAUGGUAGUGGACGUGGAUUUGGGGAUGGCUAUAAUGGGUAUGGAGGAGGACCUGGAGGUGGCAA | 0.107
GUCCUGUGCUACACAUCGUAUGUACCGAAUCGGGAAAAAGGGAAAAAGGGAAAAAGGGGAAAGUAUUAUGUUACGCCGUUCGGAUCUGCA | 0.0133
ACCAUGCAGGUAGGCAUCUUUGGGAAGUGGGGCAAGGGGGGGAUAGGGAGGGGGGUAACACUUUGGGAACAGGUGGUCCCAGGUCGUUUC | 0.016
GAGGAGCUGCUGCUGGAGCCCGAGCCGGAGCCCGAGCCCGAAGAGGAGCCGCCCCGGCCCCGCGCCCCCCCGGGAGCUCCGGGCCCUGGG | -0.115
UGGGAGGUGGAUUUUGUUUAUUUUUUUAGCUCAUUUACAGGGGUGGGAAUUUUUUUUUAAUAUGUGUCAUGAAUAAAGUUGUUUUUGAAA | 0.65
CAAGUCCUGUGCUACACAUCGUAUGUACCGAAUCGGGGUUUGGGUUUGGUUUGGGAAAGUAUUAUGUUACGCCGUUCGGAUCUGCACUUC | -0.287
GUCCUGUGCUACACAUCGUAUGUACCGAAUCGGGGAAAGGGGUUUUUUUGGGGUGGGGAAAGUAUUAUGUUACGCCGUUCGGAUCUGCAC | -0.166
GCAGGAAGUAAAAACAAAUGGAAAUGCUUCGGAUAGUGGCAGGGGUGGGGGUUGCUAAGGAAAGGGUGGGAUGGGAGUGGGUAAAGAGUA | 0.286
AGUCCUGUGCUACACAUCGUAUGUACCGAAUCGGGCCCCCGGCCCCCGGGGCCCCCGGAAAGUAUUAUGUUACGCCGUUCGGAUCUGCAC | -1.86
UCAAGUCCUGUGCUACACAUCGUAUGUACCGAAUCGGAAAGGGGAAAGGAAAGGGAAAGUAUUAUGUUACGCCGUUCGGAUCUGCACUUC | -0.0407
AGUCCUGUGCUACACAUCGUAUGUACCGAAUCGGGGCCCCGGGGCCCCGGGCCCCGGAAAGUAUUAUGUUACGCCGUUCGGAUCUGCACU | 0.727

Study 4 — method: universal PBM; form: double-stranded DNA, one strand shown; sample: in vitro; tested at: not given; reading: higher = stronger binding
Target: Sal-like protein 4, full length isoform B (SALL4, Homo sapiens, UniProt Q9UJQ4-2, residues 1-616)
Notes: 8-mer, flanks averaged, mean of replicates
Strand | E-score
ATATCGCC | 0.125
AAGGGCAG | -0.217
GTAATAAA | 0.397
AATGGGTG | 0.0532
TAAGGTGA | 0.037
CTCGCTAC | -0.178
AACAAGCA | 0.0788
GATGTTGC | -0.0197
AGTGCGCC | -0.273
ACCCAGAA | 0.0213
GATACCAA | 0.151
GCTTACAC | -0.234
ACATGTAA | 0.314
TACCCGTA | -0.013
AAGGTTGT | 0.0407
CGTCGTGC | -0.00545
ACCGTAGC | -0.241
CCCCTGAG | -0.29
CGGACGTA | -0.103
AACTGTTA | 0.221
ATGTCCCC | -0.0649
CGCGAATC | -0.159
ATCTCCGA | -0.0254
ATGTGGGG | 0.064
AGAAACAA | 0.267

Study 5 — method: DHFR PCA, deep sequencing; sample: yeast; added: (+)-ABA 0.032 µM; reference: wild-type fitted maximum; reading: higher = stronger binding
Target: ABI1, truncated, D143A, DHFR fusion (Arabidopsis thaliana)
Notes: methotrexate growth selection, single substitutions
Parent: PYL1, truncated, DHFR fusion (Arabidopsis thaliana); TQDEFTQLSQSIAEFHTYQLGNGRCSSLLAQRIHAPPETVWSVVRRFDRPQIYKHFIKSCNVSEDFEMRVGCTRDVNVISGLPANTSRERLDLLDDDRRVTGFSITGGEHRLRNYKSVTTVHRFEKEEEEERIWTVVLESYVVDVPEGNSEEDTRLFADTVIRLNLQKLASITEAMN; partner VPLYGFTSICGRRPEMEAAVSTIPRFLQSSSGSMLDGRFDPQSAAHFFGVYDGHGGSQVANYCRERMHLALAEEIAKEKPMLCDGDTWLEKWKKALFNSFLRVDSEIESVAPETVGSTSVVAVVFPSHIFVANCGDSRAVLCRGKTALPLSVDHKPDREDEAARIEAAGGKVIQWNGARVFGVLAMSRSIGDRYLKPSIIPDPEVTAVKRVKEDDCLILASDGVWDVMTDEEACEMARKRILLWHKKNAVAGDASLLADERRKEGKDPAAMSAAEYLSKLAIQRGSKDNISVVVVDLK
Substitution | relative binding score [%]
L82K | -0.984
P37S | 1.82
E109F | 3.76
A13Y | 3.04
I12V | 8.03
R74L | 0.659
L20H | 44.4
L138I | -4.45
S63R | 19.7
K58I | -0.178
V62A | 1.81
E125D | 19.3
D92L | -4.22
S117D | -2.25
N77K | 54.4
V44E | -0.715
